Results from different studies.
Every numbered part comes from another study and shows a few of its results, in no order.

Set 1 — mode: inhibitor; concentration: 20 µM; endpoint: inhibition
Target: Replicase polyprotein 1ab, nsp13 helicase (rep, Severe acute respiratory syndrome coronavirus 2, UniProt P0DTD1)
Structure (SMILES) = C[N+](C)(C)CC[N+]1(C)Cc2c(Cl)c(Cl)c(Cl)c(Cl)c2C1; result = 6.11%
Structure (SMILES) = N#Cc1ccc(NCCNCC(=O)N2CCC[C@H]2C#N)nc1; result = -0.14%
Structure (SMILES) = Cc1[nH]nc(C(F)(F)F)c1Cc1sc2c(c1C(=O)N1C[C@](C)(O)CO1)c(=O)n(C)c(=O)n2C(C)C; result = 3.06%
Structure (SMILES) = C[C@H](Nc1cc(-c2cnn(C)c2)cc(Nc2cnccn2)n1)c1ccc(F)cc1; result = 5.62%
Structure (SMILES) = CC(C)(C)NCC(O)c1ccc(O)c(CO)c1 (centres unmarked); result = -4.53%
Structure (SMILES) = O=S(=O)(NCC1CC1)c1ccc(Nc2nccc(N3CCCc4cc(O)ccc43)n2)cc1; result = 1.73%
Structure (SMILES) = CC1(C)N=C(N)N=C(N)N1OCCCOc1cc(Cl)c(Cl)cc1Cl; result = -0.46%
Structure (SMILES) = Oc1nc(-c2ccc(C(F)(F)F)cc2)nc2c1CSCC2; result = 3.48%
Structure (SMILES) = N#C/C(=C\c1ccc(O)c(O)c1)C(=O)NCCCc1ccccc1; result = 20.2%
Structure (SMILES) = Cc1cccc(-c2[nH]ncc2-c2ccc3ncccc3n2)n1; result = 1.32%
Structure (SMILES) = CCC(CC)Nc1cc(C)nc(Oc2c(C)cc(C)cc2C)c1C; result = 6.54%
Structure (SMILES) = O=C(NO)c1ccc2[nH]c(=O)c(CCCc3ccccc3)nc2c1; result = -4.42%
Structure (SMILES) = COC(=O)C(c1ccccc1)C1CCCCN1 (centres unmarked); result = 3.03%
Structure (SMILES) = CCOc1cc(C(C)(C)C)ccc1C1=N[C@@](C)(c2ccc(Cl)cc2)[C@@](C)(c2ccc(Cl)cc2)N1C(=O)N1CCN(CCCS(C)(=O)=O)CC1; result = 7.37%
Structure (SMILES) = O=C(CCNNC(=O)c1ccncc1)NCc1ccccc1; result = 13.4%
Structure (SMILES) = c1ccc(-c2ccc(CNc3nc(-c4ccccn4)nnc3-c3ccccc3)cc2)cc1; result = -1.44%
Structure (SMILES) = O=c1cc(-c2ccccc2)oc2cc(O)cc(O)c12; result = 7.35%
Structure (SMILES) = Nc1[nH]nc2nnc(-c3c(-c4ccccc4)nn4ccccc34)cc12; result = 0.27%
Structure (SMILES) = Cc1cnc(Nc2ccc(N3CCN(C)CC3)cc2)nc1Nc1cccc(S(=O)(=O)NC(C)(C)C)c1; result = 27.8%
Structure (SMILES) = CC(=O)Nc1ccc(OC[C@](C)(O)C(=O)Nc2ccc([N+](=O)[O-])c(C(F)(F)F)c2)cc1; result = 6.24%
Structure (SMILES) = CCC(=O)OCC(=O)[C@@]1(OC(=O)CC)[C@H](C)C[C@H]2[C@H]3[C@H]([C@@H](O)C[C@@]21C)[C@@]1(C)C=CC(=O)C=C1C[C@H]3Cl; result = 3.23%
Structure (SMILES) = Nc1ccc(S(=O)(=O)Nc2nccs2)cc1; result = 3.59%
Structure (SMILES) = CN1CCN(c2cccc(Nc3nc4c(-c5ccc(S(C)(=O)=O)cc5)cccn4n3)c2)CC1; result = 20.7%
Structure (SMILES) = O=C(C[S+]([O-])Cc1ccco1)NC/C=C\COc1cc(CN2CCCCC2)ccn1 (centres unmarked); result = 4.56%
Structure (SMILES) = O=C(NC[C@H](O)CO)c1ccncc1Nc1ccc(I)cc1F; result = 1.31%

Set 2 — technique: protein binding microarray; molecule type: double-stranded DNA, one strand shown; sample: in vitro; concentration: not given; baseline: not given; reading: higher = stronger binding; endpoint: E-score
Target: Histone acetyltransferase KAT6A, both winged helices, GST fusion (KAT6A, Homo sapiens, UniProt Q92794, residues 1-181)
Notes: 8-mer, flanks averaged, mean of 2 arrays, mostly near background
Target sequence (chain): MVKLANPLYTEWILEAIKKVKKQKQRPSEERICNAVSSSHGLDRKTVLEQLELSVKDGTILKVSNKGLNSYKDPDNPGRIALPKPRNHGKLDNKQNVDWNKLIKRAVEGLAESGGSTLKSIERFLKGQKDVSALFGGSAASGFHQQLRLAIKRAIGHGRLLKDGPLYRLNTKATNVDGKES
Sequence = AATTGAAC; result = -0.0708
Sequence = AGCTACCG; result = 0.121
Sequence = ATATTATA; result = -0.0678
Sequence = CACCATAG; result = -0.27
Sequence = GTACGAAC; result = 0.142
Sequence = ACTACGAA; result = -0.166
Sequence = GAATAGTC; result = -0.0766
Sequence = ATCATATG; result = -0.045

Set 3 — technique: competition protein-binding microarray; molecule type: double-stranded DNA, one strand shown; sample: in vitro; concentration: 2 µM; together with: Pho4 competitor, 0.05 µM; reading: higher = stronger binding; endpoint: fluorescence intensity; all sequences stand within: … GTCTTGATTCGCTTGACGCTGCTG
Target: Centromere-binding protein 1, full length, His-tagged (CBF1, Saccharomyces cerevisiae, UniProt P17106, residues 1-351)
Chain of UniProt P17106 (whole entry, looked up): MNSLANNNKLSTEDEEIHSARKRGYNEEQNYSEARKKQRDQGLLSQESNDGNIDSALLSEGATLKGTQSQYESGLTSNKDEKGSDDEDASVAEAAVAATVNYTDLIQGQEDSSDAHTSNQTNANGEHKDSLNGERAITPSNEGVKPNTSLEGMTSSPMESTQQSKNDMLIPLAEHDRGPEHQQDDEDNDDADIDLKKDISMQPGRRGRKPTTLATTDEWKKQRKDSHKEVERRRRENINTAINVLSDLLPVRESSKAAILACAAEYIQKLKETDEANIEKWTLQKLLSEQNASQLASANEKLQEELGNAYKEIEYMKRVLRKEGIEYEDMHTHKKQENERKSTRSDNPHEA
Notes: whole 60-bp probe, lowest competitor level
Sequence = CTAACGAAGGTTTGCCCGGTGGGTGACAAGCCAAGT; result = 58 a.u.
Sequence = TGCGCAACAACTTGCTAGGTGGGTGTATGTCTAGAA; result = 72.8 a.u.
Sequence = TGACCGTTTTGTCTTCAGGTGATGAAGCAAACAACT; result = 114 a.u.
Sequence = CTTTTCTGCTACGGCCACGTGGCCGCAGCCCGATTT; result = 1120 a.u.
Sequence = CTTCTGTAAATTTGTCTGGTGGGTGGACGCGCCCCG; result = 104 a.u.
Sequence = TGCGCAACAACTTGTCACAGTACTTTATGTCTAGAA; result = 78.1 a.u.
Sequence = CATACCCAACCTTGGTATGTGGGTGAAGATATTTGT; result = 70.8 a.u.
Sequence = CTGTACGTTGGCATCCGCGTGCTTTAAAAGGGTGTA; result = 122 a.u.

Set 4 — organism: SARS-CoV-2; observed: cytopathic effect; cells: Vero E6; concentration: 10 µM; endpoint: inhibition
SMILES = CCOc1cc(C(Nc2cc(C)ccn2)c2ccc3cccnc3c2O)ccc1OC (centres unmarked); result = -9.6%
SMILES = COc1cc(C(=S)N2CCOCC2)ccc1O; result = -1%
SMILES = NC[C@H](O)c1ccc(O)c(O)c1; result = -1.6%
SMILES = O=C(CCl)c1ccccc1; result = 5.2%
SMILES = COCCCOc1ccnc(C[S+]([O-])c2nc3ccccc3[nH]2)c1C (centres unmarked); result = 0.7%

Set 5 — organism: Vesicular stomatitis virus; observed: pseudovirus infection; technique: FDA-approved drug library screen; concentration: concentration not given; notes: SARS-CoV-2 spike pseudotype; baseline: vehicle; endpoint: GFP-positive cells
Compound = C=C1c2c(Cl)ccc(O)c2C(=O)C2=C(O)[C@]3(O)C(=O)C(C(N)=O)=C(O)[C@@H](N(C)C)[C@@H]3[C@@H](O)[C@H]12.O=C(O)c1cc(S(=O)(=O)O)ccc1O; result = 127%
Compound = CC(=O)OCC(=O)[C@@]1(O)[C@H](C)C[C@H]2[C@@H]3CCC4=CC(=O)C=C[C@]4(C)[C@@]3(F)[C@@H](O)C[C@@]21C; result = 81.8%
Compound = O=C([O-])c1cc(/N=N/c2ccc(O)c(C(=O)[O-])c2)ccc1O.[Na+].[Na+]; result = 63.2%
Compound = CN(C)CCC(c1ccc(Br)cc1)c1ccccn1.O=C(O)/C=C\C(=O)O (centres unmarked); result = 78.6%
